# Measurements pooled from the literature.
# Numbered parts are unrelated; each lists some results of a single study.

# Set 1
# Target: Histone acetyltransferase KAT6A, winged helix 1, GST fusion (KAT6A, Homo sapiens, UniProt Q92794, residues 1-85)
# Method: protein binding microarray
# Form: double-stranded DNA, one strand shown
# Sample: in vitro
# Concentration: not given
# Notes: 8-mer, flanks averaged, mean of 2 arrays, mostly near background
# Relative to: not given
# Reading: higher = stronger binding
# Residues (chain): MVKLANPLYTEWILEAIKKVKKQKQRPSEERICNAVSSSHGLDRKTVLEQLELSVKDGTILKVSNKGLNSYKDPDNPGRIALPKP
Sequence,E-score
ATAGAATA,-0.185
ACAAAAAT,-0.188
AACAATCG,-0.0499
CTATCGTA,-0.1
CATTCCCC,-0.00513
CCGCCTGA,0.298
AACATTCA,-0.102
AGCCCGCA,0.134
CACTGTCG,-0.0493
CCATCCCC,-0.224
AGAGATAT,-0.246
CGTGGCTA,-0.138
AGTAGCCA,-0.17
GTAGGAAC,-0.168
CTTTAATC,-0.0115
ACCACAGC,-0.102
CTCTTACA,-0.197
ACGTGGAG,-0.154
AGCCAGCC,-0.189
ATAATCAC,-0.0399
TGGTGGAA,-0.323
GGTCATTA,0.067
CGATGTGA,-0.0415
AGATTTTC,-0.262
AGACGTGC,-0.0494

# Set 2
# Target: RING finger protein unkempt homolog, zinc fingers 1-6, GST-SBP tag (UNK, Homo sapiens, UniProt Q9C0B0, residues 30-357)
# Method: RNA Bind-n-Seq
# Form: RNA
# Sample: in vitro
# Concentration: not given
# Notes: RNA with constant flanks, human and mouse sites, ends assumed
# Relative to: input RNA pool
# Reading: higher = stronger binding
# Shared flanks, not repeated: GGGAGUUCUACAGUCCGACGAUC … CAACAGAGGAUUGAGCAUCA
# Construct (chain): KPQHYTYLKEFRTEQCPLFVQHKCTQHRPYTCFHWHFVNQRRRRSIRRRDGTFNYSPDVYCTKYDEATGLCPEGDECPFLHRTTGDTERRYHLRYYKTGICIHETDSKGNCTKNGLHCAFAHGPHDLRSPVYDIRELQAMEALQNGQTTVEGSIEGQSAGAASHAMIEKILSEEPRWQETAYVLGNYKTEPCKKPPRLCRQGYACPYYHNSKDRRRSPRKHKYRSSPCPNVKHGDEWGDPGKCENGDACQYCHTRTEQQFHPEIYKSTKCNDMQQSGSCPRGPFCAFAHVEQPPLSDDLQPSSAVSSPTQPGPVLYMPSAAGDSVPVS
Sequence,bound/input enrichment [ratio]
CCGGGACAGUGUGGCCGAGCAGAUGGCUAUGUGCUAGAGGGCAAAGAGUUGGAGUUCUAUCUUAGGAAAAUCAAGGCCCGCAAAGGCAAAUAAAUCCUUGUUUUGUCUUCACCCAUGUAA,0.268
GGAGUAGAAGUCCAUCCUCCCCCCAACCUCCUGACCCAUUCAUAAAUGCUGAGAAUGUCUCUCAUGGGAACACUGUUAAUGACCCACACAGGAUAAGCUGAAUGCAAAGUUAUUUGCAGG,0.277
CCUUAAUUAGCAGGUACUGUGUAUUUCAUCAGGAAGUCUUUGUAGUUCUAGAUACUCAGCUAGUAUUUUGGAAUUUGUAUAAUGAGAAUGUUUAGAAGCCAUCUAUAUGGCUUUUUUAAA,9.22
GUGCAUGAGCAUCUGCAUUAGCUCUGAAGACUUCUGCCCUCGGCUCCUCAUACAUUUAAUCACAUUUACACACCAAUUUUAUAAAAAUAGCAGUGUAGAUUCCAAGGGACUCUGAGCCUC,0.507
GUGCUGGCUGUGUCGAAAGUGGAGGAGCUGACGAGGCAGCUGGAGAUGCUGAAGAACGGCAGGAUCGAUGGCCACCACGACAACCAGUCGGCCGUGGCUGAGCUGGACCGCCUUUACAAG,0.0903
AAGCACUUACAACUUAGCACUAGUCAUCUGUGUCUCCUGGGAGUUUUCUGAUUGGCCGGAUAUGACAGCUUUUGGUUAAACCCUGAGUCUUGAGACUGAGGAAAAGCUGUGUGUCUAUAG,0.411
GAGGGUUGUGAUGUUUGGGGCUGGGAAUGUUUUUGGUAGAAUAAUGGUACAGCUUUUGGCUAGUUUCCUUGUCAAUUGCCAGUGCUGGGAGAAAGAAAUCCCAUGGAAACACAUACCAGU,0.838
UUGCUGAAAGGAGCUACGCUAAAAAAUACCGAGAAGAUAUAUGGAGUUGCUGUUUACACUGGAAUGGAAACCAAAAUGGCUUUGAACUACCAAGGGAAAUCUCAGAAACGUUCUGCUGUU,0.158
GCGGCCCGCCGCGCUGUCGCUGCAGUCAUGGCUGCUGACGGGGUGGACGAACGUUCGCCUCUGCUGUCAGCAUCCCAUUCGGGAAAUGUCACUCCCACAGCCCCGCCGUACUUGCAGGAA,0.11
AUAUAUAUUCAUUUGCACUUACGUGAAACACAAACUUUGCUCUACAAAAUUUCGUGUUUCUUAGUGAUUUUAAAAUGCAUGUAUUGCAUGUAAAGGAAAACCAUUACAAUUAAUGUUUAU,0.338
GUGAGCCACCGUGCCUGGCCGACGAUAUAACUUUUAAAGAACCAACCUUUGGUUUUAUUUUUCUCAAUUGUUUAUAUAAUUAAUUUCUGUUAUUUUCUUUCUUCUAUUUAGCUUGAGUCU,16

# Set 3
# Target: RNA binding protein fox-1 homolog 2, RRM domain, GST-SBP tag (RBFOX2, Homo sapiens, UniProt O43251-10, residues 100-194)
# Method: RNA Bind-n-Seq
# Form: RNA
# Sample: in vitro
# Concentration: 365 nM
# Notes: natural RNA segment, single round, ends assumed
# Relative to: no-protein control
# Reading: higher = stronger binding
# Shared flanks, not repeated: GGGAGUUCUACAGUCCGACGAUC … UGGAAUUCUCGGGUGCCAA
# Construct (chain): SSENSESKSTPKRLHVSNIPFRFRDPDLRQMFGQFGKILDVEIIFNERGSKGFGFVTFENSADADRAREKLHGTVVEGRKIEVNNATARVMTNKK
Sequence,RBNS enrichment (R)
GAGGGACACCUGCUUAUUUUCCCCCGUGGGCCUCACUCUAUCCCUGAAAACAGUGAAUGUUAUAUGAGUUUGUUCUCAAGUUCUCUCUAGCCCUUUGGUAGUUUAUUCAU,0.556
GGAAGGGCUGUCGGGACAUACUUUCUACAUAACGCUACAACCCUGACCAAGCAAAGACAUGCUUGUUACAGGCUAUUUUCUAUAUUUAUUGUGGGAGAGUCACUUUAAAG,0.656
GUGAGUUUGAGAAACAAGUUGAAACUAAAAUUAAAAUACCAGCCAUUUAGGUGCUUUCUCUGGCAUCUAUAAAAGUAAAUUCUAGUGCCUGCCAAGUGAUGGAUUAUAAU,1.18
AUACAGCACUAGUCAAGACAAUGUGAUAUCCUUCCACCUUCCCCCUUUAUUUCAAGAAAUGCAUAGAUAAGGGAGAAGAAAGGCUUCAAGGAUUCAUGGUUAAGAAGUGU,0.686
GGAGAACUGACUAGCUAAACUGCUACAGUAUGCAAUUUCUAUUACAAUUGGUAUUACAGGGGGGAAAAGUAAAAUUACACUUUACCUGAAAGUGACUUCUUACAGCUAGU,0.355
AUGUGCAUUCAAAAGGAAUAGAACGAAUUUCUGUCAUCCCGGUGACCCUCCUGGUGCCGGGCUCUUGUUGUCAUAAAGUUCUCCCAUAUUUCUAUAAGGAUGGAUUUAUA,0.479
UCUUUCUGUUCUCUUUACUCUUCUCACAGAUCAGAUCACUCCAUAGAAGCCUGUGGGUUUCGAUGGUUUCUUCUAUACACCUUUUUGGUUGACCAGUAUUACUAUACAAU,0.451
CUUCUCUAAUGUGUAAGUGGAGCCUGAACUGCAGGGGCUCUUUAUAUUCCAAACAACCCAGGGUUAGCCUUGGCCUCGAUCCUGGCCUUGGCCUCCCUAGGCUAUAUCUG,0.304
AUGCCUGUUAGACCUUAGCUGUGGGGUUCCUUUACUAUUGGGUGAAUCAUUAGGUAUAAAAAAUAAUCAUCAACCAGGCAAAUUACUUUGCUUCCUAGCUGAUGUCAUCC,2.1
AAUUCAUUCAUUCACUCUGCUCAAGACUCCACUGGGCCAAGAGAUGGAAGAACAAACAAAAAGGACUUUCCAUGUAGCCUUCCUCCAUGUGGCCUAGUGAAACAUGGAUC,0.22
ACUAUAUUCUAGUUUGGAGUACUUGCUGUAGGAUACAAGCUGUCUUUGCACUAGCUCUAAAGAAGAAUUUCUUCUGGUUUUAGAGAACUGAUUUUGUUUUAGCAUUAAAC,0.417
ACCCAGAGAUUUUUGAGGGAUGAACGGGUAGACAAGGACUGAGAUUGCCUCUGACUUCCUCCUCCCCUGGGUUCUGACUUCUUCCUCCCCUUGCUUCCAGGGAAGAUGAA,1.66

# Set 4
# Target: Interferon regulatory factor 7, full length, phosphomimetic (IRF7, Homo sapiens, UniProt Q92985, residues 1-503, S101K/S471D/S472D/S475D/S476D/S477D/S483D/S484D/S487D)
# Sequence of UniProt Q92985 (whole entry, unmodified, looked up): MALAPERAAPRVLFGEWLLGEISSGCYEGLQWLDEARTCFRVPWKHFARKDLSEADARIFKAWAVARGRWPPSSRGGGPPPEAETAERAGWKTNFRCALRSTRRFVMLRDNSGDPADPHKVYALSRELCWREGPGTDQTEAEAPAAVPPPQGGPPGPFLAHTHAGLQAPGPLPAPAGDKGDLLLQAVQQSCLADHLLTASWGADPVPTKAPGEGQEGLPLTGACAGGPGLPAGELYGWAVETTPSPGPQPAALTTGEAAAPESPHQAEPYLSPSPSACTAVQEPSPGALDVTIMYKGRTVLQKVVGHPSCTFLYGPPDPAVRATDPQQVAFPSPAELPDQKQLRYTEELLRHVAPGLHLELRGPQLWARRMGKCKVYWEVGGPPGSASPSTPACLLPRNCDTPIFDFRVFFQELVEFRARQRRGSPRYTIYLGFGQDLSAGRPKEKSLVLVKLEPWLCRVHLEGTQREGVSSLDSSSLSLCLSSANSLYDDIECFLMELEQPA
# Method: protein-binding microarray
# Form: double-stranded DNA, one strand shown
# Sample: in vitro
# Concentration: 250 nM
# Notes: 60-bp whole probe
# With: salmon DNA 0.4 mg/ml
# Relative to: random background probes
# Reading: higher = stronger binding
# Shared flanks, not repeated: GCCTAGCAC … GTCTTGATTCGCTTGACGCTGCTG
Sequence,log fluorescence
TTAGATATCAGATTCGATTAGTGCTAG,2.91 z-score
TTAGACTTCAGTCTCGATTAGTGCTAG,1.59 z-score
AACGGTTTCGGTATCGGGACGTGCTAG,10.6 z-score
CTGAGTCCCTATCTCCTCACGTGCTAG,0.653 z-score
GACGGGTTCGGTTTCGGGACGTGCTAG,6.91 z-score
CCAGGCTGAAAGACCTCTGAGTGCTAG,-0.752 z-score
TTAGGACTGCGGTATCGGTTAGTGCTA,0.0758 z-score
GACGGTGTCGGGTATCGGGACGTGCTA,-0.41 z-score
TCACTTATCCTATCAGTACTGTGCTAG,0.957 z-score
TTAGGTATCCTTATCCTTAAGTGCTAG,0.928 z-score
TTAGATCCCAGTATCGATTAGTGCTAG,1.18 z-score
GACGGACTGGGGACTGGGGAAGTGCTA,-0.636 z-score
GACGGTATAGACTATCGGGACGTGCTA,-0.699 z-score
TCATTCCTAATTCTCTTACTGTGCTAG,2.16 z-score
TCACCCCTCTAGGTTCTCACTGTGCTA,-0.248 z-score
GGGATAAGGACAGACACCATGTGCTAG,0.0609 z-score
CCAAGTCTTGTTTTACAATTGTGCTAG,2.86 z-score

# Excerpt of the above (set 3):
Sequence,RBNS enrichment (R)
GAGGGACACCUGCUUAUUUUCCCCCGUGGGCCUCACUCUAUCCCUGAAAACAGUGAAUGUUAUAUGAGUUUGUUCUCAAGUUCUCUCUAGCCCUUUGGUAGUUUAUUCAU,0.556
UCUUUCUGUUCUCUUUACUCUUCUCACAGAUCAGAUCACUCCAUAGAAGCCUGUGGGUUUCGAUGGUUUCUUCUAUACACCUUUUUGGUUGACCAGUAUUACUAUACAAU,0.451
GGAGAACUGACUAGCUAAACUGCUACAGUAUGCAAUUUCUAUUACAAUUGGUAUUACAGGGGGGAAAAGUAAAAUUACACUUUACCUGAAAGUGACUUCUUACAGCUAGU,0.355
GGAAGGGCUGUCGGGACAUACUUUCUACAUAACGCUACAACCCUGACCAAGCAAAGACAUGCUUGUUACAGGCUAUUUUCUAUAUUUAUUGUGGGAGAGUCACUUUAAAG,0.656
CUUCUCUAAUGUGUAAGUGGAGCCUGAACUGCAGGGGCUCUUUAUAUUCCAAACAACCCAGGGUUAGCCUUGGCCUCGAUCCUGGCCUUGGCCUCCCUAGGCUAUAUCUG,0.304
GUGAGUUUGAGAAACAAGUUGAAACUAAAAUUAAAAUACCAGCCAUUUAGGUGCUUUCUCUGGCAUCUAUAAAAGUAAAUUCUAGUGCCUGCCAAGUGAUGGAUUAUAAU,1.18
AAUUCAUUCAUUCACUCUGCUCAAGACUCCACUGGGCCAAGAGAUGGAAGAACAAACAAAAAGGACUUUCCAUGUAGCCUUCCUCCAUGUGGCCUAGUGAAACAUGGAUC,0.22
AUGCCUGUUAGACCUUAGCUGUGGGGUUCCUUUACUAUUGGGUGAAUCAUUAGGUAUAAAAAAUAAUCAUCAACCAGGCAAAUUACUUUGCUUCCUAGCUGAUGUCAUCC,2.1
